Measurements gathered from unrelated publications.
Every numbered part comes from another study and shows a few of its results, in no order. Changes are numbered by the printed parent chain.
UniProt P46098, sequence (whole entry, looked up): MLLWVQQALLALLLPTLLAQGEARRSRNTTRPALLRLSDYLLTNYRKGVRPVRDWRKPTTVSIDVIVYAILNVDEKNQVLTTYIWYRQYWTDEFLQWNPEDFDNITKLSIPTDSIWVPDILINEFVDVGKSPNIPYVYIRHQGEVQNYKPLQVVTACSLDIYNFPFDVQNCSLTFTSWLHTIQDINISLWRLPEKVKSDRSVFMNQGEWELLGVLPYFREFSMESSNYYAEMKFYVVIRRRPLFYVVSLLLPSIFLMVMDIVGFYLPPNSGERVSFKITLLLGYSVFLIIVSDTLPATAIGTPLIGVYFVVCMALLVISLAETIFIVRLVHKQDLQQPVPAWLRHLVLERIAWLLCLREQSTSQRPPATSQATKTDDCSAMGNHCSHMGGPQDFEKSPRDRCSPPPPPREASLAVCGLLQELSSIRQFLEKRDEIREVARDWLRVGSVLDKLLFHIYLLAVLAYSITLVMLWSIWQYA

Set 1
Target: Protein C-ets-1 (ETS1, Homo sapiens, UniProt P14921, residues 1-441, Y397A, full length assumed)
Technique: protein-binding microarray
Molecule type: double-stranded DNA, one strand shown
Sample: in vitro
Concentration: not given
Notes: k-mer, scored over probes, only values ≥0.25
Reading: higher = stronger binding
Residues (chain): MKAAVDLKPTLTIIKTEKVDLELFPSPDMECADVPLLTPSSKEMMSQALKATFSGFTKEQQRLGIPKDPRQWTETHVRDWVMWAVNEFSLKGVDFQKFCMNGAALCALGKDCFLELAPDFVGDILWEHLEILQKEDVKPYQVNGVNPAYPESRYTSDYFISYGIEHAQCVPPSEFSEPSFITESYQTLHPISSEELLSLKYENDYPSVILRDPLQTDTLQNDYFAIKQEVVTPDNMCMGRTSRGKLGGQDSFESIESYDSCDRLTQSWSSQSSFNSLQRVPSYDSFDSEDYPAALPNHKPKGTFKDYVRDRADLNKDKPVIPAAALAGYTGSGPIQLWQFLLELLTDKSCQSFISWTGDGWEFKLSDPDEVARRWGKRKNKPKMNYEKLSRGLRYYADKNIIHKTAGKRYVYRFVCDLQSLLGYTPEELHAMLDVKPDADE
Oligonucleotide | E-score
TGACATAA | 0.331
ATGTCGAC | 0.338
ACAAAAGC | 0.311
ACAATGTG | 0.293
ATCGTGCG | 0.269
AAATTGGC | 0.32
AATCAACA | 0.28
CTGTTGCA | 0.261

Set 2
Target: TAR DNA-binding protein 43, full length, His tag (TARDBP, Homo sapiens, UniProt Q13148, residues 1-414)
Technique: RNA Bind-n-Seq
Molecule type: RNA
Sample: in vitro
Concentration: 20 nM
Notes: 6-mer, flanks averaged, single round
Added: 150 mM KCl
Baseline: input library
Reading: higher = stronger binding
Oligonucleotide | 6-mer enrichment (R)
UGCUCU | 0.581
GUCGCU | 0.812
UACACU | 0.579
ACCAUU | 0.622
CCCCAC | 0.654
CCAUUC | 0.571
GGUGGA | 3.28
AAACAG | 0.696

Set 3
Target: CRIPT, C-terminal peptide
Technique: DHFR complementation, deep sequencing
Sample: yeast
Notes: single substitutions, model-inferred values
Baseline: wild type
Reading: higher = weaker binding
Starting sequence: ERBIN, PDZ domain 1 (human); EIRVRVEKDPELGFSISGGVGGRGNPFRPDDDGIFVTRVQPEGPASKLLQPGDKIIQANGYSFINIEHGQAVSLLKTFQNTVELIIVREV; partner TKNYKQTSV
Variant | binding free energy change [kcal/mol]
P29Y | 0.168
T81N | 0.194
A71V | 0.601
D30G | 0.232
I66V | -0.0392
R5K | 0.0971
R38V | -0.0216
P41L | 0.329

Set 4
Target: Dual serine/threonine and tyrosine protein kinase (DSTYK, Homo sapiens, UniProt Q6XUX3)
Read-out: enzyme activity
Mode: inhibitor
Concentration: 0.5 µM
Baseline: control
Construct (Q6XUX3 1-929): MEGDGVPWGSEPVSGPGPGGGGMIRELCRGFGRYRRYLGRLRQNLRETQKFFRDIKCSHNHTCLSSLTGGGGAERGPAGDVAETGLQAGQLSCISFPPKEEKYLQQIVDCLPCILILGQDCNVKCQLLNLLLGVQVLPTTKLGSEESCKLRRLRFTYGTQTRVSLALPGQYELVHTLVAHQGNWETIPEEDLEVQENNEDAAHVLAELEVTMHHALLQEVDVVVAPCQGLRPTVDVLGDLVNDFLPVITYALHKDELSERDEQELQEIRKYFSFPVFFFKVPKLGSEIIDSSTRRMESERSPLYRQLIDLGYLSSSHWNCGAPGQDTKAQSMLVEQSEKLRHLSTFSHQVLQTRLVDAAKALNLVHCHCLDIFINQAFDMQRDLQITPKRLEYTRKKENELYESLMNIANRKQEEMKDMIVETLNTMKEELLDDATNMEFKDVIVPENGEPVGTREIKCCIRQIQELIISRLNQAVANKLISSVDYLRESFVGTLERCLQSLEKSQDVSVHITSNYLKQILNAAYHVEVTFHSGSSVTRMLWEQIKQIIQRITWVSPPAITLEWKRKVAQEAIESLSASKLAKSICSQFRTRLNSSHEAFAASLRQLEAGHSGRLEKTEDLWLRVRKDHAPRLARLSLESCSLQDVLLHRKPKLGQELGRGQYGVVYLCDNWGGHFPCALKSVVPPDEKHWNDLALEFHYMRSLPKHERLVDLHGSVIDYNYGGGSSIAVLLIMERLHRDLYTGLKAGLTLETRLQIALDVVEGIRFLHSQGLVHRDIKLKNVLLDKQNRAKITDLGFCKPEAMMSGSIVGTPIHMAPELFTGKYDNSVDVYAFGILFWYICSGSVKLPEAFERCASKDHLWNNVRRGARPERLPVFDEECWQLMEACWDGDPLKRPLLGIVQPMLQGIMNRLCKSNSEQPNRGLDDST
SMILES | remaining activity
N#Cc1c(NC(=O)c2cccc3ccccc23)sc2c1CCCC2 | 100%
c1ccc(-c2cnc(Nc3ccc(OCCN4CCCC4)cc3)s2)cc1 | 90.8%
O=C1c2ccccc2-c2n[nH]c3cccc1c23 | 99.5%
CCOc1nc(NC(=O)Cc2cc(OC)ccc2OC)cc(N)c1C#N | 97.4%
O=C(NC(NC(=S)Nc1ccc(F)c([N+](=O)[O-])c1)C(Cl)(Cl)Cl)C(c1ccccc1)c1ccccc1 (stereo not drawn) | 100%
c1ccc(-c2[nH]ncc2-c2ccnc3ccccc23)nc1 | 98.3%
COc1cc2ncnc(Nc3ccc(O)c(Br)c3)c2cc1OC | 106%
O=C1C(Cl)=C(N2C(=O)CCC2=O)C(=O)c2ccccc21 | 95.4%
Ic1cccc(CSc2nnc(-c3ccncc3)o2)c1 | 94.8%
COc1cc2ncnc(Nc3cccc(Cl)c3)c2cc1OC | 90.8%
Cn1nc2c3c(cccc31)C(=O)c1ccccc1-2 | 101%
CN([C@@H](Cc1ccc(OS(=O)(=O)c2cccc3cnccc23)cc1)C(=O)N1CCN(c2ccccc2)CC1)S(=O)(=O)c1cccc2cnccc12 | 97.4%
N#C/C(=C\c1ccc(O)c(O)c1)C(=O)NCc1ccccc1 | 91%
CN(C)C[C@H]1CCn2c(c(C3=C(c4cn(C)c5ccccc45)C(=O)NC3=O)c3ccccc32)C1 | 89.4%
CCN(CC)C(=O)c1ccc(Nc2nc(OCC3CCCCC3)c3[nH]cnc3n2)cc1 | 106%
Nc1cccc(-c2cc3c(Oc4cccc(O)c4)ncnc3[nH]2)c1 | 83.4%
Cc1cn(-c2cc(NC(=O)c3ccc(C)c(Nc4nccc(-c5cccnc5)n4)c3)cc(C(F)(F)F)c2)cn1 | 107%
Cc1nc2cc3nc(-c4cccs4)cnc3cc2n1C | 106%
COc1cc2c(cc1OC)-c1[nH]nc(Nc3cccc(F)c3)c1C2 | 93.3%
O=c1cc(-c2cccc3c2Sc2ccccc2S3)oc(N2CCOCC2)c1 | 93.4%
CCN(CC)CCNC(=O)c1c(C)[nH]c(/C=C2\C(=O)Nc3ccc(Cl)cc32)c1C | 105%
C[C@@H]1CCN(C(=O)CC#N)C[C@@H]1N(C)c1ncnc2[nH]ccc12 | 98.4%
Cc1cc2ncc(-c3ccccc3)nc2cc1C | 95.5%

Single results of other studies
SMILES | target | assay | setting | endpoint | result
Cc1nc(Cc2cccc(C(F)(F)F)c2)sc1-c1ccc(C(N)=O)nc1 | 5-hydroxytryptamine receptor 3A (HTR3A, Homo sapiens, UniProt P46098) | binding, radioligand binding | 10 µM | inhibition | 4.72%

For quick reference, copied from above (set 4):
SMILES | remaining activity
N#Cc1c(NC(=O)c2cccc3ccccc23)sc2c1CCCC2 | 100%
O=c1cc(-c2cccc3c2Sc2ccccc2S3)oc(N2CCOCC2)c1 | 93.4%
O=C1C(Cl)=C(N2C(=O)CCC2=O)C(=O)c2ccccc21 | 95.4%
